Measurements from different studies.
Numbered parts are unrelated; each lists some results of a single study. Substitutions count along the parent as printed.

Block 1 — method: DHFR PCA, deep sequencing; medium: yeast; with: (+)-ABA 0 µM; reference: wild-type fitted maximum; reading: higher = stronger binding; measurement: relative binding score
Target: ABI1, truncated, D143A, DHFR fusion (Arabidopsis thaliana)
Setting: methotrexate growth selection, single substitutions
Parent: PYL1, truncated, DHFR fusion (Arabidopsis thaliana); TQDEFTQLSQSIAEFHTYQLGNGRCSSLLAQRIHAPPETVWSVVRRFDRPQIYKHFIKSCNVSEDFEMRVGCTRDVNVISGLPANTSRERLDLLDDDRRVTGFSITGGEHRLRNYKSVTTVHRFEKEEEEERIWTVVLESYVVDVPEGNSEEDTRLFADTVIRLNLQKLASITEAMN; partner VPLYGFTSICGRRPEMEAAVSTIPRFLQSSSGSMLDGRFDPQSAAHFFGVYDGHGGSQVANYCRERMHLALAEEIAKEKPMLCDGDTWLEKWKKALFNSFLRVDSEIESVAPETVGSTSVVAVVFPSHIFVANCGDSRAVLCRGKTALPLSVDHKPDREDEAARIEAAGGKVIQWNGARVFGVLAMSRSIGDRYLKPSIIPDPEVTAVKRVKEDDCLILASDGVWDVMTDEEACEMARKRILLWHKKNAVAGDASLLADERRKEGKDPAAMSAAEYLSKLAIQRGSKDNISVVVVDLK
Substitution = T119M; value = 4.82%
Substitution = R49V; value = -0.63%
Substitution = T106A; value = -2.04%
Substitution = F66D; value = 3.76%
Substitution = R111H; value = 5.76%
Substitution = V43A; value = 0.574%
Substitution = H55D; value = 1.16%
Substitution = E128D; value = 44.3%
Substitution = D95A; value = -2.2%
Substitution = F124Q; value = 7.64%
Substitution = F157W; value = 32.9%
Substitution = W41A; value = -0.637%
Substitution = R155K; value = 46.2%
Substitution = Y115C; value = 6.67%
Substitution = M68S; value = -0.446%
Substitution = T173Q; value = -0.824%
Substitution = V76A; value = -1.27%
Substitution = T17Y; value = -2.95%
Substitution = T160S; value = 6.29%
Substitution = Y141M; value = -9.99%
Substitution = W134F; value = 17.3%
Substitution = T86C; value = 24.4%
Substitution = I12A; value = 2.88%
Substitution = A35R; value = 0.71%

Block 2 — method: universal PBM; molecule type: double-stranded DNA, one strand shown; medium: in vitro; tested at: 600 nM; reading: higher = stronger binding; measurement: E-score
Target: Sal-like protein 4, full length isoform A (SALL4, Homo sapiens, UniProt Q9UJQ4, residues 1-1053)
UniProt Q9UJQ4, sequence (whole entry, looked up): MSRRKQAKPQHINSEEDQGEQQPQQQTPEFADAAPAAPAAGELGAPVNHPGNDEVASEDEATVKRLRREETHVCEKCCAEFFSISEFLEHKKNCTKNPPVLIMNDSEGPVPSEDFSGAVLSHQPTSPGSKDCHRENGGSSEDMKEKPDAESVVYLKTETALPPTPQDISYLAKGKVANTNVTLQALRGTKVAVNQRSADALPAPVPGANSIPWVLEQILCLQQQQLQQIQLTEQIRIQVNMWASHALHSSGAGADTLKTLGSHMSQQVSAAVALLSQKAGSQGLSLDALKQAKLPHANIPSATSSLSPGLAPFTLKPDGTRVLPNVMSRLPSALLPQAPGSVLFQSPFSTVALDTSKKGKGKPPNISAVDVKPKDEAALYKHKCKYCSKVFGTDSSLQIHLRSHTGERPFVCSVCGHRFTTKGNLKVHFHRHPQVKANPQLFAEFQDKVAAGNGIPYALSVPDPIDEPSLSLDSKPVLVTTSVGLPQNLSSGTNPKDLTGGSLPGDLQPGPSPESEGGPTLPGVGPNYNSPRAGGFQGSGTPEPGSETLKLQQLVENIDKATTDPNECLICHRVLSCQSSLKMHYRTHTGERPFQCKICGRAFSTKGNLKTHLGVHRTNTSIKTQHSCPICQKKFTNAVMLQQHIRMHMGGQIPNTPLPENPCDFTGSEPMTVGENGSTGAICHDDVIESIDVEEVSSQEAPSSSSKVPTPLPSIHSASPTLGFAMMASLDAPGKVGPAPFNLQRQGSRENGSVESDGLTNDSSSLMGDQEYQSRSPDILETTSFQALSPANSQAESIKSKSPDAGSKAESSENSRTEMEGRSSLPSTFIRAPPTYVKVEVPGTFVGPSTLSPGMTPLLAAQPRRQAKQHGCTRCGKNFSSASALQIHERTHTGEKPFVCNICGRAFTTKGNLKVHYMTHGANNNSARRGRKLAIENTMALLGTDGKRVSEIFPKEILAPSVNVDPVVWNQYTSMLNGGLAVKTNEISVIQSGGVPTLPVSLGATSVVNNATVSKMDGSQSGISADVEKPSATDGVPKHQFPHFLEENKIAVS
Setting: 8-mer, flanks averaged, mean of replicates
Strand = CTGACTCA; value = -0.0561
Strand = GCTAAAGC; value = -0.0836
Strand = CCACTTCA; value = -0.0652
Strand = CTCGGAGC; value = -0.249
Strand = GGAACTGA; value = -0.169
Strand = ATTTAAAG; value = 0.309
Strand = ATCAGGCG; value = -0.208
Strand = GCATCCGA; value = -0.184
Strand = ACCGAATC; value = -0.0737
Strand = CGTCGACA; value = -0.205
Strand = CGTTTGGA; value = -0.0578
Strand = AATTAGTC; value = 0.243
Strand = AGACCTGC; value = -0.138
Strand = GGAGAACC; value = -0.169
Strand = AAATTGAT; value = 0.259
Strand = CCGTGCGC; value = -0.356
Strand = ATGGACTA; value = 0.106
Strand = CCCGAATA; value = 0.119
Strand = AACAGCTC; value = -0.084
Strand = ACACAGAC; value = 0.0364

Block 3 — method: RNA Bind-n-Seq; molecule type: RNA; medium: in vitro; tested at: 200 nM; setting: whole 134-nt RNA, ends assumed; with: 150 mM LiCl; reference: input library; reading: higher = stronger binding; measurement: log2 enrichment; all molecules: 7-deaza-guanosine replaces G
Target: Fragile X messenger ribonucleoprotein 1, C-terminal low-complexity region (Fmr1, Mus musculus, UniProt P35922)
All sequences stand within: GGGAGUUCUACAGUCCGACGAUC … UGGAAUUCUCGGGUGUCAAGG
Strand = UCCUGUGCUACACAUCGUAUGUACCGAAUCGGGGUUUUUUGGGUUUUUUGGUUUUUUGGAAAGUAUUAUGUUACGCCGUUCGGAUCUGCA; value = -0.3
Strand = UGGCCCUGGUGGCAUGCGGGGAGGAAGAGGUGGCCUCAUGGAUCGUGGUGGUCCCGGUGGUAUGUUCAGAGGUGGCCGUGGUGGAGACAG; value = -0.765
Strand = CACAGACAACACGCACCCACACAGACACAGAGGGAAGGGGUUGGGAUGGGGACAGGGUGCACAGCAGGGCGGGGUAGGACCCCCGCCCCU; value = -0.995
Strand = UGGCCCUGGUGGCAUGCGGGGAGGAAGAGGUGGCCUCAUGGAUCGUGGUGGUCCCGGUGGAAUGUUCAGCGGUGGCCGUGGUGGAGACAG; value = -0.626
Strand = UGGCCCUGGUGGCAUGCGGGGAGGAAGAGGUGGCCUCAUGGAUCGUGGUGGUCCCGGUGGAAUGUGCAGAGGUGGCCGUGGUGGAGACAG; value = 0.00542
Strand = CAAGUCCUGUGCUACACAUCGUAUGUACCGAAUCGGGUUUGGGAAAAAGGGUGGGAAAGUAUUAUGUUACGCCGUUCGGAUCUGCACUUC; value = -1.37
Strand = ACCAUGCAGGUGGGCAUCUUUGGGAAAUGGGGCAAGGGGGGGAUAGGGAGGGGGGUAACACUUUGGGAACAGGUGGUCCCAGGUCGUUUC; value = 1.48
Strand = CUCAAGUCCUGUGCUACACAUCGUAUGUACCGAAUCGGCCCGGCCCGGGCCCGGAAAGUAUUAUGUUACGCCGUUCGGAUCUGCACUUCC; value = -1.41

Block 4 — method: RNA Bind-n-Seq; molecule type: RNA; medium: in vitro; tested at: 365 nM; reference: no-protein control; reading: higher = stronger binding; measurement: RBNS enrichment (R)
Target: RNA binding protein fox-1 homolog 2, RRM domain, GST-SBP tag (RBFOX2, Homo sapiens, UniProt O43251-10, residues 100-194)
Setting: natural RNA segment, single round, ends assumed
All sequences stand within: GGGAGUUCUACAGUCCGACGAUC … UGGAAUUCUCGGGUGCCAA
Target sequence (chain): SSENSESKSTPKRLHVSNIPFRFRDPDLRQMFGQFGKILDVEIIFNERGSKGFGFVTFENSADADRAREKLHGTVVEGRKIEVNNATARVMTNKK
Strand = GAACAUCACAACACUGCUCUAGUUUCUUGGAGAAUCACAUUUCUUUACAGGUUAAAGACAAACAAGACCCCAGGGUUUUUAUCUAGAAAGUUAUUCAAGUGAAAGAAAGA; value = 0.467
Strand = GGCACACUAAAAAAGAUCCUAGUUGAGCAUCUCUCUUGGUGAGGAAGCGAUGUGUGUGCGGUUCAGGAAACUCCUCCAAGAGGAGGAGGAGUCCAAACAGGGAUGCCAGA; value = 0.427
Strand = CAGAUUGAGGCCACUUUUGAGCAAGGGAGAUCCUGGAGUUAAGACAGGUGUUGGGGGCAGCCUGUAUUUUACCCUAGGGGCAGGUCUGCAUGGUGACCCCACAUUGCACU; value = 1.49
Strand = AGCAUAUUAGAAGAAAGCAAACUGCCAUACAAUAAUUUUCAGUUUCCAAGGCAACCAAGUGGAGAACACAUCACAGGAGACAGGAAAUAUGGCUUGUUCAUAGAAUGAUG; value = 0.693
Strand = UGCCCACCCCAGCCUCCCAAAAUGCUGGGAUUACAGGCGUGAGCCACGGCACGCAGCCAGCAAGUUGUUUUUAAAUGUUAAUAUAGAAAACAGUGAAGGAUUAGCUGAAA; value = 0.339
Strand = AAAGCCAUAUUCCAGCAGUGAAACUUGUGCUAUAGUGUAUACCACCUGUACAUACAUUGUAUAGGCCAUCUGUAAAUAUCCCAGAGAACAAUCACUAUUCUUAAGCACUU; value = 0.351
Strand = UUGUUCACAAGUAAUCUGUUGACAGUGCCAAUAAAUGAUAAAAAAAAAAUUAACAUGUCACAAUGUAACGGAUGACCAUAUGCACAAUUCCAUGAAUUAAAUCUGUUUCC; value = 0.564
Strand = GGGAAAGCCAAGAAUAAAUGUCACUCCAGAACACAUUUUUUUUUAGCAAUAAAAUGGUGUCAAAUGUAUUGACCAUGGCCCUAGAGUCUGAGUAAUACCAGGUGUGUUGU; value = 0.327

Block 5 — target: CCNB1, cyclin fold, Cln2 fusion (human); method: yeast growth competition, sequencing; medium: yeast; setting: strong parent motif; reference: not given; reading: higher = stronger binding; measurement: normalised enrichment score
Parent: PKMYT1 docking peptide (human); SFEPRNLLSLFED
Substitution = SFEPRNLLSSFED [L10S]; value = 0.142
Substitution = SFEPRNLLCLFED [S9C]; value = 0.919
Substitution = SFEPRNLGSLFED [L8G]; value = -0.195
Substitution = SFEPRNLLVLFED [S9V]; value = 1.29
Substitution = NFEPRNLLSLFED [S1N]; value = 1.36
Substitution = SFEPCNLLSLFED [R5C]; value = 1.29
Substitution = SFEPRNLLSLFLD [E12L]; value = 0.114
Substitution = SFEPKNLLSLFED [R5K]; value = 1.8
Substitution = SFEPRNLLLLFED [S9L]; value = 0.78
Substitution = SFEPRNLLSCFED [L10C]; value = 0.475
Substitution = SFEPANLLSLFED [R5A]; value = 1.23
Substitution = SFEPRNLLSYFED [L10Y]; value = 1.01
Substitution = SFDPRNLLSLFED [E3D]; value = 0.156
Substitution = SFEPRNLLSLFET [D13T]; value = 0.945
